Published values gathered from unrelated publications.
Protocols differ between the studies behind these lines.
Cell line: T47D

O=C(Nc1nnc2c1c(-c1ccc(Cl)cc1)nc1sc(=Cc3ccco3)c(=O)n12)c1ccccc1 (mixture of isomers) — cell growth (SRB; 10 µM, NCI60 single-dose screen; relative to: untreated): 48.8%
N#CSCCCCCCOc1ccc2c(-c3ccccc3)cc(=O)oc2c1 — GI50 (cell growth or viability, SRB): 44 µM
COc1cccc2c1cc1c3c(cc4c(c32)OCO4)[C@@H]2c3c4c5c(cc6c(c5c5cccc(OC)c35)OCO6)CCN4[C@@H]2N1C (racemic) — inhibition (cytotoxicity, MTT; 50 µg/mL, 48 h): < 50%
Cc1ccc([N+](=O)[O-])cc1S(=O)(=O)N(C)/N=C/c1cnc2ccc(Br)cn12 — IC50 (cell growth or viability): > 10 µM
COC(=O)N1c2ccc3c(nc(Cc4ccccc4)n3[C@@H]3CCC[C@@H](C(=O)O)C3)c2CC[C@@H]1C — IC50 (cell growth or viability, ATP luminescence; 10 days): 2.16 µM
C1=[N+]2CCCC[N+]3=Cc4ccc5[n]4[Au-]23[n]2c1ccc2-c1nc2ccccc2nc1-5.F[P-](F)(F)(F)(F)F — TGI (NCI60 five-dose screen): 4.59 -log M
CNS(=O)(=O)Nc1nccc(Cc2c(C)c3ccc(Oc4ncccc4F)cc3oc2=O)c1F — IC50 (cell viability; 7 days): > 1 µM
N#C[Se]CCCCCCOc1ccc2c(-c3ccccc3)cc(=O)oc2c1 — GI50 (cell growth or viability, SRB): 11 µM
CC(C)=CC1OC(C)(C)C2C=C3C(=O)C(Cl)=CC(O)C3C3C(O)C4OC4C(=O)C132 (centres unmarked) — IC50 (cell growth or viability, MTS): 9.56 µM
CCCC(CCC)C(=O)OCc1cn(-c2cc3ccccc3oc2=O)nn1 — growth percentage (NCI60 single-dose screen; 10 µM): 98.7%
CN(C)CCN1CCN(c2ccc3nc(-c4ccc5nc(-c6ccc(C(F)(F)F)cc6)[nH]c5c4)[nH]c3c2)CC1 — growth percent (SRB; 10 µM, 48 h): 61.4%

Repeated from above:
C1=[N+]2CCCC[N+]3=Cc4ccc5[n]4[Au-]23[n]2c1ccc2-c1nc2ccccc2nc1-5.F[P-](F)(F)(F)(F)F — TGI (NCI60 five-dose screen): 4.59 -log M
COC(=O)N1c2ccc3c(nc(Cc4ccccc4)n3[C@@H]3CCC[C@@H](C(=O)O)C3)c2CC[C@@H]1C — IC50 (cell growth or viability, ATP luminescence; 10 days): 2.16 µM
